Assay results collected from several papers.
A part holds a random share of what one study measured.
Sequence of UniProt P07333 (whole entry, looked up): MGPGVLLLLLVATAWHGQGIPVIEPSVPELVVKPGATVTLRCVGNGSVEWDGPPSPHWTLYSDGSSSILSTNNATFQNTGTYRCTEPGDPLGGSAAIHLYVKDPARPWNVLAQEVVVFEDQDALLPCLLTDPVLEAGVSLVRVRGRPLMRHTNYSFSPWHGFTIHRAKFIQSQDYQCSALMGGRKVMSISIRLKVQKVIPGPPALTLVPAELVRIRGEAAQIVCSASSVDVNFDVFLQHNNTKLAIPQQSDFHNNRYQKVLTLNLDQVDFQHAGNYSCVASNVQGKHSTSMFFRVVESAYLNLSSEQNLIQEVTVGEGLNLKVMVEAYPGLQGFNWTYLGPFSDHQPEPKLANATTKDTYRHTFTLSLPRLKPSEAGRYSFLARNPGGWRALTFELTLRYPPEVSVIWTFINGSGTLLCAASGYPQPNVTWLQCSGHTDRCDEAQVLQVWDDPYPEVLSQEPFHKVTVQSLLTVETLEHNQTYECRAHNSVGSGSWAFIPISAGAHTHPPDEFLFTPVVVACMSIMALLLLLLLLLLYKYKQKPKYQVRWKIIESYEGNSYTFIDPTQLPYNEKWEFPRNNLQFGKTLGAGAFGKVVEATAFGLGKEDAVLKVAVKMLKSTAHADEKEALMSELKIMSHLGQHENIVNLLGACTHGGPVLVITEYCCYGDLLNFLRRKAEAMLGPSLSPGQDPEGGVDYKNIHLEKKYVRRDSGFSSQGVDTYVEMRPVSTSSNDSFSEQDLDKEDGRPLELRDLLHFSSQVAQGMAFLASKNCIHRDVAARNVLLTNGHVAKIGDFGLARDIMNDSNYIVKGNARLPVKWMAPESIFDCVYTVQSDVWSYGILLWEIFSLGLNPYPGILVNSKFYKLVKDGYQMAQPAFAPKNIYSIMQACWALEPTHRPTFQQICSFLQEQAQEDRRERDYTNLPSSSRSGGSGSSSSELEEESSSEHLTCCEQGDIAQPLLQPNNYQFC
Sequence of UniProt P52333 (whole entry, looked up): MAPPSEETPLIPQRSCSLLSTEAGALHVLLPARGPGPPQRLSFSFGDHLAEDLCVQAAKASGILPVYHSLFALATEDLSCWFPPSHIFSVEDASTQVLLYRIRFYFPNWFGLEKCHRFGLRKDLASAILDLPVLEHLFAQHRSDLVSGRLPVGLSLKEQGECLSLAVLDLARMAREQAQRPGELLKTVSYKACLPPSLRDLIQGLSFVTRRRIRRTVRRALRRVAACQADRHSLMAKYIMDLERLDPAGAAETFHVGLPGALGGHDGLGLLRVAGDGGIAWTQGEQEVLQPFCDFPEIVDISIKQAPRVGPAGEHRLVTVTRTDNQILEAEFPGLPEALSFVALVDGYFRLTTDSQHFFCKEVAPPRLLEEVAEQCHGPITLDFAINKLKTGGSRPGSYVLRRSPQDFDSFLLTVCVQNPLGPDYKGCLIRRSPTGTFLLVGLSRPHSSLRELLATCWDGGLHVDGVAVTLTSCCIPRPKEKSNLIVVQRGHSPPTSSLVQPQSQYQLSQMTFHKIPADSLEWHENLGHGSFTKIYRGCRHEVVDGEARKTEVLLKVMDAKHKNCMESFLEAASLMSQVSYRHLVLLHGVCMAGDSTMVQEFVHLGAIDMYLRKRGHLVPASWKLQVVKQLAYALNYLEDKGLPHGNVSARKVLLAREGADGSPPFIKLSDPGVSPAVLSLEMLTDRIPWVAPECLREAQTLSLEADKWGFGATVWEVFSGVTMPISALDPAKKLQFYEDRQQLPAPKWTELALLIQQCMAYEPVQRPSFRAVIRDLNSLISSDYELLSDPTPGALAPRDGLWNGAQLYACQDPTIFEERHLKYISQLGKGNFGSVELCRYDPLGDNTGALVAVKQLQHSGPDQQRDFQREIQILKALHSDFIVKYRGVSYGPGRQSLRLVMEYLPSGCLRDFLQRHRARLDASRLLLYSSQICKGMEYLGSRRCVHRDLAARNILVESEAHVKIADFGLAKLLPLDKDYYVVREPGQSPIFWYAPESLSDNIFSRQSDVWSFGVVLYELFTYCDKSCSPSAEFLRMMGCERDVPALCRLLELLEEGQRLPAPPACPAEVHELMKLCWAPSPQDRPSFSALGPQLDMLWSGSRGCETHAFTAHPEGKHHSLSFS
Sequence of UniProt Q13557 (whole entry, looked up): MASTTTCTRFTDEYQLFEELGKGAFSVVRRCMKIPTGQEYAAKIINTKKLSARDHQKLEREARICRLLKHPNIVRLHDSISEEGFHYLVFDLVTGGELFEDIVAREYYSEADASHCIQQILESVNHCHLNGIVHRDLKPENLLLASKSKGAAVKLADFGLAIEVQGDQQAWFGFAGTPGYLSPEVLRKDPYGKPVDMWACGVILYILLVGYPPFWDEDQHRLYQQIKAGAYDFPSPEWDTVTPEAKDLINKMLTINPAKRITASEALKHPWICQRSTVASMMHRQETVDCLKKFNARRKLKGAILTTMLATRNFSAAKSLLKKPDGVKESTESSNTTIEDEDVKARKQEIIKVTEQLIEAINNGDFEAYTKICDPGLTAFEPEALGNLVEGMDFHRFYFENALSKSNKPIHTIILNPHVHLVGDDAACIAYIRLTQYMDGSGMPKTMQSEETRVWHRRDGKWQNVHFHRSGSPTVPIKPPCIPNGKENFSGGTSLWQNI
Sequence of UniProt P51451 (whole entry, looked up): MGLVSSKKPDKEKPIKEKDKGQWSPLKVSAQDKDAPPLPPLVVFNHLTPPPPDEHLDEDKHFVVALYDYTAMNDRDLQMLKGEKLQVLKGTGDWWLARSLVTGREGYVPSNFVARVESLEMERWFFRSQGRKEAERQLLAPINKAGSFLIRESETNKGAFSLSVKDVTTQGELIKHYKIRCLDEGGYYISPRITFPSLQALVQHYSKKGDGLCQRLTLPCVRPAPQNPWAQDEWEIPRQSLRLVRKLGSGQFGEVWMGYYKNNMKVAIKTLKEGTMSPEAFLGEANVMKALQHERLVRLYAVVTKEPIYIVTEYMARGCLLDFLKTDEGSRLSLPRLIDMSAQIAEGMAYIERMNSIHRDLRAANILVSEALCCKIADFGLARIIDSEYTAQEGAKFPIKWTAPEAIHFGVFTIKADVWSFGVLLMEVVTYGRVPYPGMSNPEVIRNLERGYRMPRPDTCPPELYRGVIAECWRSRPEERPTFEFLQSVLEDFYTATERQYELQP
Sequence of UniProt O14965 (whole entry, looked up): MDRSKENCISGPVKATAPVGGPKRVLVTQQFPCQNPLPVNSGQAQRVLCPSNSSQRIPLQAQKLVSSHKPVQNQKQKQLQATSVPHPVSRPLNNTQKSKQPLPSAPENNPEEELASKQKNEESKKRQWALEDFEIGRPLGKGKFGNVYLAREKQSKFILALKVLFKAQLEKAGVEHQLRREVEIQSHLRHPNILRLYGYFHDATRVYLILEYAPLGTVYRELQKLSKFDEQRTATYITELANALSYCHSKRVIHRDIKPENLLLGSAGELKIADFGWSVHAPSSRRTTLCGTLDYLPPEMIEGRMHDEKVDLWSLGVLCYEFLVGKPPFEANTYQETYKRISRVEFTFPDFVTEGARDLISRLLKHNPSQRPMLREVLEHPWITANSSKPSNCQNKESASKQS
Sequence of UniProt O14730 (whole entry, looked up): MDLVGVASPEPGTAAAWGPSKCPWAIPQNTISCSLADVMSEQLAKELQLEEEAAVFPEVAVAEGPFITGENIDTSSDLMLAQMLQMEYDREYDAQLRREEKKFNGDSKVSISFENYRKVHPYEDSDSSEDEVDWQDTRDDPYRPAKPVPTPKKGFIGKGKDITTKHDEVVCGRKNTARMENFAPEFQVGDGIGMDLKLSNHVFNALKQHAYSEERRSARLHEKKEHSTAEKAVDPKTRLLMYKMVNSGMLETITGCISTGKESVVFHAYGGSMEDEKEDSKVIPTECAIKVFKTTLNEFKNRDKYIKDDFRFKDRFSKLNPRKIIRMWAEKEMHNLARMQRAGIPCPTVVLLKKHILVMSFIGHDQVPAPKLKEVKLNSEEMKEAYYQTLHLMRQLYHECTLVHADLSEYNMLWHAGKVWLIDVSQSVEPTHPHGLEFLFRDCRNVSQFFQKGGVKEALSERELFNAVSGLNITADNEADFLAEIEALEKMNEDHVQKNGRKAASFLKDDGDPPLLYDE
Sequence of UniProt P52564 (whole entry, looked up): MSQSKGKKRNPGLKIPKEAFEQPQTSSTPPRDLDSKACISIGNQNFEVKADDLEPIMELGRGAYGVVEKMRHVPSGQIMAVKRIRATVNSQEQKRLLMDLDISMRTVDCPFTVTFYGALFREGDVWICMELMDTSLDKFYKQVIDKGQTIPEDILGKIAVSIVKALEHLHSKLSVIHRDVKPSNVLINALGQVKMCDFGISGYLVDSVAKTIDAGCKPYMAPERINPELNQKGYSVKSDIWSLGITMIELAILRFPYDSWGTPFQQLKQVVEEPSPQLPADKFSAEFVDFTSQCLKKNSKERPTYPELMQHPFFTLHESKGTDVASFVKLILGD
Sequence of UniProt Q8WU08 (whole entry, looked up): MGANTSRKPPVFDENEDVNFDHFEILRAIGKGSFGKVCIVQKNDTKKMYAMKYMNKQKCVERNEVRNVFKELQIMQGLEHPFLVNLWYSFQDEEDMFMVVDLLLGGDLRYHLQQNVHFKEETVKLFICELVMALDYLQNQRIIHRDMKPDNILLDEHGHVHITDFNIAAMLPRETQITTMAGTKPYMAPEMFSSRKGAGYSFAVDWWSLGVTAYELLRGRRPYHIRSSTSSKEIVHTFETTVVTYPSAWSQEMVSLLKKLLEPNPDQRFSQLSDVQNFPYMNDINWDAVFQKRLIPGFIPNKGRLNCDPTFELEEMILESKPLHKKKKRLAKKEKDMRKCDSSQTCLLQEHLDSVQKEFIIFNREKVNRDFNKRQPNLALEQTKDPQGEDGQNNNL

Study 1
Structure (SMILES): CC(=O)N1CCC(c2ccc(C(=O)NC3=NCCN3)cc2C(F)(F)F)CC1
Tested at: 1 µM
Tyrosine-protein kinase ABL1, phosphorylated (ABL1, Homo sapiens, UniProt P00519, Y253F); cell-free assay, competition with immobilised ligand — remaining binding: 90%.
For BLK (Homo sapiens, UniProt P51451); cell-free assay, competition with immobilised ligand: remaining binding read 94%.
For RIOK3 (Homo sapiens, UniProt O14730); cell-free assay, competition with immobilised ligand: remaining binding read 98%.
Macrophage colony-stimulating factor 1 receptor, autoinhibited (CSF1R, Homo sapiens, UniProt P07333); cell-free assay, competition with immobilised ligand — remaining binding: 94%.
It gave 100% for remaining binding (Tyrosine-protein kinase JAK3, JH1 (JAK3, Homo sapiens, UniProt P52333); cell-free assay, competition with immobilised ligand).
For MKNK1 (Homo sapiens, UniProt Q9BUB5); cell-free assay, competition with immobilised ligand: remaining binding read 100%.
It gave 100% for remaining binding (SIK1 (Homo sapiens, UniProt P57059); competition binding).
MAP2K6 (Homo sapiens, UniProt P52564); cell-free assay, competition with immobilised ligand — remaining binding: 100%.
It gave 100% for remaining binding (STK32A (Homo sapiens, UniProt Q8WU08); cell-free assay, competition with immobilised ligand).
It gave 100% for remaining binding (Aurora kinase A (AURKA, Homo sapiens, UniProt O14965); cell-free assay, competition with immobilised ligand).
The remaining binding was 100% (Myosin-IIIb (MYO3B, Homo sapiens, UniProt Q8WXR4); binding, competition with immobilised ligand).
CAMK2D (Homo sapiens, UniProt Q13557); cell-free assay, competition with immobilised ligand — remaining binding: 100%.
FLT3 (Homo sapiens, UniProt P36888, D835V); cell-free assay, competition with immobilised ligand — remaining binding: 97%.

Study 2
Target: RNA binding protein fox-1 homolog 2, RRM domain, GST-SBP tag (RBFOX2, Homo sapiens, UniProt O43251-10, residues 100-194)
Technique: RNA Bind-n-Seq
Form: RNA
Matrix: in vitro
Tested at: 365 nM
Notes: natural RNA segment, single round, ends assumed
Relative to: no-protein control
Reading: higher = stronger binding
Shared flanks, not repeated: GGGAGUUCUACAGUCCGACGAUC … UGGAAUUCUCGGGUGCCAA
Residues (chain): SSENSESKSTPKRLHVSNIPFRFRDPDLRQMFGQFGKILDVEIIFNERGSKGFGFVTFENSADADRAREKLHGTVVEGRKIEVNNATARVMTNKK
`AUCCAAUCGCCCUCAAGUGAGACCUUUGUCCCCUGGAGAGAGUGGUGCCUGGGACAUUCCUGGAGGGAUCAUGCCUGGCCGCUACAACCAGGAGGUGGGACAGACCAUCC` — result for “RBNS enrichment (R)”: 0.246.
`ACCUGAAAAUGCAACAGAAAGGGAGCGUGGGUACGAGGGCCUGGUUUCUACUGUGUGUAAAUGGGAGUCGCUCUCAUUAGUCCCAUUGCACUGACAUCCAGCACCUGGAC`: “RBNS enrichment (R)” 2.51.
For `ACCAGUUCUGCCAGUAACUGGUUUUAGAACCUUGGGCAAGUUAAAGAAUGUCUCCCAGCCUCAGUUUCCCUAUUUGUAAAAUGGAAAUAAUGGUAGCUACCUCAAACCUC`, “RBNS enrichment (R)” read 1.8.
`UAGGGCGCAUUAUAAAUGCAUUAAUCCUUAUAGUCAAUCCUGUGCCUAGGAUUUUGCAAGGGAACAGUUCACUGACUAGGAAAAGCACUACAUUUAAAACUCAGCAUUAG` — result for “RBNS enrichment (R)”: 0.917.
For `UUUUAUCAGGCUUUCUCUGGGGGACAGCAGUCUCUGAGCACCAGGGAGCAGUUGCCCUCAGGCCUGUGCCCAGCAUGCCCUCCCCUUUUUAUACGAAUGUUUUCUACCAG`, “RBNS enrichment (R)” read 1.34.
Under “RBNS enrichment (R)”, `GCCAUUAAUUUUUGGGUUUUUUUAAAAUCCAGAAGGUAUAUAGAAACCUUUUCAGAUUUUUCAUCUGAUUUGUUCUUGCAGAUGUUCUUCUAUCAAAUACCUUAUUUUAC` is recorded as 0.726.
Under “RBNS enrichment (R)”, `AUGGAAAACCGGGGUGUCUCCCGCACAGCUUCCCAGGAGUCAGGUGGGACCCAGGCGUGGGGGGACCUUUCUGCCCCACAUUCCUGGCAUUCCCCCCAAGUUUAUUUCUA` is recorded as 0.154.
`UCACAUUUAAGACUUCUAAAAUGGAAUAAUAGCCUUUUGUUUUUCAUGAGCAUAUUCGCACCCCUAUAUGAAUUACAGCAUUUAAAGUUCAAAAUCAGUAACUUUUAAUC`: “RBNS enrichment (R)” 0.944.

Study 3
Partner: PHB2 (Homo sapiens, UniProt Q99623)
Technique: cross-linking MS
Matrix: cell fractions
With: DSSO
Under cross-linked residues, `GAPDH (Homo sapiens, UniProt P04406)` is recorded as “K263 to K296”.
Under cross-linked residues, `CYCS (Homo sapiens, UniProt P99999)` is recorded as “K40 to K262”.
`ATR (Homo sapiens, UniProt Q13535)` — result for cross-linked residues: “S2313 to K250”.

Study 4
Target: Receptor tyrosine-protein kinase erbB-2 (ERBB2, Homo sapiens, UniProt P04626)
Observed: enzyme activity
Mode: inhibitor
Tested at: 0.5 µM
Relative to: control
`COc1ccc(S(=O)(=O)N(CCO)c2ccccc2CN(C)CC=Cc2ccc(Cl)cc2)cc1` gave a remaining activity of 97.8%.
The remaining activity of `O=C1NC(=O)C(c2c[nH]c3ccccc23)=C1c1c[nH]c2ccccc12` is reported as 94.3%.
With `O=C1Cc2c([nH]c3ccc([N+](=O)[O-])cc23)-c2ccccc2N1` the remaining activity was 94.8%.
With `Cc1ccc(NC2=CC(=O)c3sc(C)nc3C2=O)cc1` the remaining activity was 94.2%.
The remaining activity of `Fc1ccc(-c2nc3n(c2-c2ccncc2)CCS3)cc1` is reported as 105%.
`Nc1nccc(-c2c(-c3ccc(F)cc3)ncn2C2CCNCC2)n1` gave a remaining activity of 93.7%.
For `CC[n+]1c(/C=C/N(C)c2ccccc2)n(-c2ccccc2)c2ccc(-c3nc4ccccc4s3)cc21`, the remaining activity was 92%.
`CC(=O)c1ccc(N2CCOCC2)cc1O` has a remaining activity of 98.2%.
With `Cc1cncc2cccc(S(=O)(=O)N3CCCN(C(=O)CN)C[C@@H]3C)c12` the remaining activity was 99.7%.

Excerpt of the above (study 2):
`UCACAUUUAAGACUUCUAAAAUGGAAUAAUAGCCUUUUGUUUUUCAUGAGCAUAUUCGCACCCCUAUAUGAAUUACAGCAUUUAAAGUUCAAAAUCAGUAACUUUUAAUC`: “RBNS enrichment (R)” 0.944.
`ACCUGAAAAUGCAACAGAAAGGGAGCGUGGGUACGAGGGCCUGGUUUCUACUGUGUGUAAAUGGGAGUCGCUCUCAUUAGUCCCAUUGCACUGACAUCCAGCACCUGGAC`: “RBNS enrichment (R)” 2.51.
For `UUUUAUCAGGCUUUCUCUGGGGGACAGCAGUCUCUGAGCACCAGGGAGCAGUUGCCCUCAGGCCUGUGCCCAGCAUGCCCUCCCCUUUUUAUACGAAUGUUUUCUACCAG`, “RBNS enrichment (R)” read 1.34.
`UAGGGCGCAUUAUAAAUGCAUUAAUCCUUAUAGUCAAUCCUGUGCCUAGGAUUUUGCAAGGGAACAGUUCACUGACUAGGAAAAGCACUACAUUUAAAACUCAGCAUUAG` — result for “RBNS enrichment (R)”: 0.917.
